Experimental data of several laboratories.
Compare with care: the assays were run in different laboratories. ± gives the spread as reported.

Compound | assay | test system | conditions | tissue uptake [%ID/g]
CC[C@H](C)[C@H](NC(=O)[C@H](CCCCN)NC(=O)CNC(=O)[C@H](CC(C)C)NC(=O)[C@H](Cc1ccccc1)NC(=O)[C@H](CCCCN)NC(=O)[C@H](CO)NC(=O)[C@H](Cc1ccccc1)NC(=O)[C@H](Cc1c[nH]c2ccccc12)NC(=O)[C@H](CCC(N)=O)NC(=O)[C@@H](NC(=O)[C@H](Cc1ccccc1)NC(=O)CCCCCNC(=O)CN1CCN(CC(=O)O)CCN(CC(=O)O)CCN(CC(=O)O)CC1)C(C)C)C(=O)N[C@@H](CCC(=O)O)C(=O)N1CCC[C@H]1C(=O)N[C@@H](CC(=O)O)C(=O)N[C@H](C(=O)N[C@@H](CO)C(=O)N[C@@H](CCC(N)=O)C(=O)N[C@H](C(=O)N[C@@H](CCC(N)=O)C(=O)N[C@@H](CC(=O)O)C(=O)N1CCC[C@H]1C(=O)N[C@@H](CC(N)=O)C(=O)N[C@@H](CC(=O)O)C(=O)N[C@@H](CCC(N)=O)C(=O)N[C@@H](Cc1ccc(O)cc1)C(=O)N[C@@H](CCC(=O)O)C(=O)N1CCC[C@H]1C(=O)N[C@@H](Cc1ccccc1)C(=O)O)C(C)C)C(C)C [copper-64 labelled] |  | C57BL/6 mice, male, naive, skeletal muscle | 0.5 h | 1.19 ± 0.1
CC[C@H](C)[C@H](NC(=O)[C@H](CCCNC(=N)N)NC(=O)[C@H](CCCCN)NC(=O)[C@H](Cc1ccc(O)cc1)NC(=O)[C@H](CC(=O)O)NC(=O)[C@H](C)NC(=O)CNC(=O)CCOCCOCCOCCNC(=O)CN1CCN(CC(=O)O)CCN(CC(=O)O)CCN(CC(=O)O)CC1)C(=O)N[C@H](C(=O)N[C@@H](CC(C)C)C(=O)N[C@@H](CCCCN)C(=O)N[C@H](C(=O)N[C@@H](CC(N)=O)C(N)=O)C(C)C)[C@@H](C)O [copper-64 labelled] | ex vivo gamma counting | C57BL/6J male mice, B16-F10 tumour, testis | intravenous, 1.85 MBq, 40 min | 0.698 ± 0.059
CSCC[C@H](NC(=O)CNC(=O)[C@H](CCCCN)NC(=O)[C@H](CC(C)C)NC(=O)[C@@H]1CCCN1C(=O)[C@H](CO)NC(=O)[C@H](Cc1c[nH]cn1)NC(=O)[C@H](Cc1c[nH]c2ccccc12)NC(=O)[C@H](CCCNC(=N)N)NC(=O)[C@H](CC(C)C)NC(=O)[C@H](CCCNC(=N)N)NC(=O)[C@H](Cc1c[nH]c2ccccc12)NC(=O)[C@H](CS)NC(=O)CCCCCNC(=O)CN1CCN(CC(=O)O)CCN(CC(=O)O)CCN(CC(=O)O)CC1)C(=O)O [copper-64 labelled] | ex vivo biodistribution | C57BL/6J mice bearing B16-F10 tumours, lung | intravenous, 1.85 MBq, 0.5 h | 6.05
CC[C@H](C)[C@H](NC(=O)[C@H](CCCNC(=N)N)NC(=O)[C@H](CCCCN)NC(=O)[C@H](Cc1ccc(O)cc1)NC(=O)[C@H](CC(=O)O)NC(=O)[C@H](C)NC(=O)CNC(=O)CCOCCOCCOCCNC(=O)CN1CCN(CC(=O)O)CCN(CC(=O)O)CCN(CC(=O)O)CC1)C(=O)N[C@H](C(=O)N[C@H](C(=O)N[C@@H](CCCCN)C(=O)N[C@H](C(=O)N[C@@H](CC(N)=O)C(N)=O)C(C)C)C(C)C)[C@@H](C)O [copper-64 labelled] | ex vivo gamma counting | C57BL/6J male mice, B16-F10 tumour, heart | intravenous, 1.85 MBq, 100 min | 0.664 ± 0.042
CCCC[C@H]1C(=O)N(C)[C@@H](CCCC)C(=O)N[C@@H](CCCNC(=O)CN2CCN(CC(=O)O)CCN(CC(=O)O)CCN(CC(=O)O)CC2)C(=O)N[C@H](C(=O)NCC(N)=O)CSCC(=O)N[C@@H](Cc2ccc(O)cc2)C(=O)N(C)[C@@H](C)C(=O)N[C@@H](CC(N)=O)C(=O)N2CCC[C@H]2C(=O)N[C@@H](Cc2c[nH]cn2)C(=O)N[C@@H](CC(C)C)C(=O)N(C)CC(=O)N[C@@H](Cc2c[nH]c3ccccc23)C(=O)N[C@@H](CO)C(=O)N[C@@H](Cc2c[nH]c3ccccc23)C(=O)N1C [gallium-68 labelled] |  | NOD/SCID mice with CHO-hPD-L1 xenograft, skin | 10 min post injection | 4.35 ± 0.9
CC(C)C[C@@H](NC(=O)[C@@H](CCCNC(=N)N)NC(=O)[C@@H](Cc1c[nH]cn1)NC(=O)[C@@H](Cc1c[nH]c2ccccc12)NC(=O)[C@@H](Cc1c[nH]cn1)NC(=O)[C@@H](Cc1ccccc1)NC(=O)[C@H](NC(=O)[C@@H](Cc1ccc(O)cc1)NC(=O)CNC(=O)CNC(=O)CCOCCOCCOCCNC(=O)CN1CCN(CC(=O)O)CCN(CC(=O)O)CC1)[C@H](C)O)C(=O)N[C@H](CC(N)=O)C(=O)N1CCC[C@@H]1C(=O)O [gallium-68 labelled] |  | C57BL/6 mice, male, heart | intravenous, 1.85 MBq, 60 min, added: GP12 blocking | 0.69 ± 0.3
CC[C@H](C)[C@H](NC(=O)[C@@H](Cc1c[nH]c2ccccc12)NC(=O)[C@@H]1CCCN1C(=O)[C@H](CCCCN)NC(=O)[C@H](CCCCN)NC(=O)CCNC(=O)CCNC(=O)CN1CCN(CC(=O)O)CCN(CC(=O)O)CCN(CC(=O)O)CC1)C(=O)N[C@@H](C[Si](C)(C)C)C(=O)O [gallium-68 labelled] | ex vivo biodistribution | nude mice, HT-29 xenograft, stomach | 90 min, added: levocabastine 0.5 µmol | 0.24 ± 0.06
C[C@H](O)[C@@H](NC(=O)[C@H]1CCCN1C(=O)[C@@H](CCCCN)NC(=O)[C@@H](CO)NC(=O)[C@@H](Cc1ccc(O)cc1)NC(=O)[C@@H](CC(N)=O)NC(=O)CCOCCOCCOCCNC(=O)CN1CCN(CC(=O)O)CCN(CC(=O)O)CCN(CC(=O)O)CC1)C(=O)N[C@H](CC(=O)O)C(=O)N[C@H](CCCNC(=N)N)C(=O)N[C@H](CCC(N)=O)C(=O)N[C@H](Cc1ccc(O)cc1)C(=O)N[C@H](Cc1c[nH]cn1)C(=O)N[C@H](Cc1ccccc1)C(N)=O [copper-64 labelled] |  | C57BL/6J mice, muscle | intravenous, 1.85 MBq, 1.333 h, radiolabelled | 0.15 ± 0.11
